Measured values collected from several papers.
Parts stem from different laboratories: compare values within a part only. Substitutions count along the parent as printed.

Sample 1
Target: Phosphate system positive regulatory protein PHO4, full length, GST-tagged (PHO4, Saccharomyces cerevisiae, UniProt P07270, residues 1-312)
Technique: competition protein-binding microarray
Molecule type: double-stranded DNA, one strand shown
Sample: in vitro
Concentration: 2 µM
Notes: whole 60-bp probe, lowest competitor level
Together with: Cbf1 competitor, 0.05 µM
Direction: higher = stronger binding
Shared flanks, not repeated: … GTCTTGATTCGCTTGACGCTGCTG
Construct (chain): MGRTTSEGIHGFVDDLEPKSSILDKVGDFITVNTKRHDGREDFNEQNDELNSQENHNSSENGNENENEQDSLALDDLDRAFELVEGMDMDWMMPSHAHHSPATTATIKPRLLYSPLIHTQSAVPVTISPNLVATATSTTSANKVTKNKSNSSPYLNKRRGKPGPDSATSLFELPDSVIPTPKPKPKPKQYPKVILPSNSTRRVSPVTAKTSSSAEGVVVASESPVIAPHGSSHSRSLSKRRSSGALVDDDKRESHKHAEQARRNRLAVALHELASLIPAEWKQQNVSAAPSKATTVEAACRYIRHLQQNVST
Strand	fluorescence intensity [a.u.]
TTGGAAGTTGTATCGCACGTACAGGACCTGAACACT	6170
CATACCCAACCTTGTCACGTTACTTAAGATATTTGT	9090
CTTCTGTAAATTTGGTTGGTGGGTGGACGCGCCCCG	4710
TTCAGAAGGTGGAGACACATGAAATTGACAGGTCTT	4070
AGCGAACTCGCTCGAAGCGTGCCGACCAGCTCCCGG	7510
ATTCACTAAGAGGCAAACATGACAACGCGGGCTCCA	5100
ACACCATATGGTGCACCCGTGCTGTTTGTCACTGCC	11000
CAGAGAACCGGTAGCCACATGCAAACTAAAACTTTC	8330
CGGGGTTAAGTTTGGCGAGTGGGTGGCTTGCAGCAG	4310
CACATAAGGATAATTCACCTGCCAAGACGGCACAGG	4470
TCTTGTTCGGCCGGTAGCGTGCCGATTCAGGTAACG	7070
CTCTCGGGCGTCGCCAACGTGGTCGTTCAAATGCTT	14600
TGCGCAACAACTTGCTAGGTGGGTGTATGTCTAGAA	4870
TTACGGCCATTTCTGCTCGTGGTGAAGATCAAGTGT	9520
GTCTTGTCTCATTGTCACGACACTTTCCCCACTTCA	5440
AGGCTCTTTCACTTCAGCATGACAGTAGTCCACTCT	3870

Sample 2
Target: Sal-like protein 4, full length isoform B (SALL4, Homo sapiens, UniProt Q9UJQ4-2, residues 1-616)
Technique: universal PBM
Molecule type: double-stranded DNA, one strand shown
Sample: in vitro
Concentration: not given
Notes: 8-mer, flanks averaged, mean of replicates
Direction: higher = stronger binding
Residues (chain): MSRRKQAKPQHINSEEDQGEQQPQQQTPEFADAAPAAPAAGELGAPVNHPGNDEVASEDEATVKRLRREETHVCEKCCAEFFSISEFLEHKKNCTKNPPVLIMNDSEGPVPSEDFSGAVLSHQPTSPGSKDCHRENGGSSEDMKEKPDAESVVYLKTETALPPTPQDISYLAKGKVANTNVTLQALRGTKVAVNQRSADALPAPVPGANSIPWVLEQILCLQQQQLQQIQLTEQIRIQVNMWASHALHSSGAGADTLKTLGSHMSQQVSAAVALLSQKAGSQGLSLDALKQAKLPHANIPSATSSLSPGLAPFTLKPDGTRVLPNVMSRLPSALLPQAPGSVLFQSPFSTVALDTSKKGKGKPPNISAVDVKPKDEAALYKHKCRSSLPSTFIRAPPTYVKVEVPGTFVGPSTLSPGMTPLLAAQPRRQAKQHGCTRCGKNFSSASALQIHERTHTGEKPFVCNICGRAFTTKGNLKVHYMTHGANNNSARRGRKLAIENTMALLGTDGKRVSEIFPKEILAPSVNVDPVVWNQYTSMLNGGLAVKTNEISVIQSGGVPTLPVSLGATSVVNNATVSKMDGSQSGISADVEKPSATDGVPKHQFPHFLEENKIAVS
Strand	E-score
CCGTTTGC	-0.235
GAGCACTA	-0.0728
TAAGGAAA	0.141
TATCTGCA	0.174
GTCGCTCA	-0.135
GCCAGGAC	-0.275
ACCGTTTG	-0.136
ACCGAGCT	-0.144
ACTTGCAC	0.041
CTTTTATC	0.126
AAAAGCAC	-0.0631
ATCGGGCA	-0.206
GTGATAAC	0.229
AGTGTCGA	-0.0202
GGATTCAA	0.0476
CTCTGGCA	-0.249
ATGCAAAA	0.293
GAGGCCCA	-0.271
GCAATCAC	0.068
CTGGAGTC	-0.263
GCCTACCA	-0.12
CCCTTCTC	-0.232
AAGCGGGC	-0.283

Sample 3
Target: ABI1, truncated, D143A, DHFR fusion (Arabidopsis thaliana, UniProt P49597)
Technique: DHFR PCA, dose-response
Sample: yeast
Notes: Hill fit, not affinity, not high confidence
Together with: (+)-ABA, dose series
Direction: lower = more sensitive
Parent: PYL1, truncated, DHFR fusion (Arabidopsis thaliana, UniProt Q8VZS8); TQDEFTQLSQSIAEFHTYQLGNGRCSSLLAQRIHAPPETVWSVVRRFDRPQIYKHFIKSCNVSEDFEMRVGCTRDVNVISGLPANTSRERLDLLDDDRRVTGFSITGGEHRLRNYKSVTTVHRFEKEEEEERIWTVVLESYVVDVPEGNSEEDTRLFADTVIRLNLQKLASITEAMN
Substitution	ABA EC50 [µM]
H110L	917
R74G	0.225
G102Y	1.27
L91K	29.2
N149A	79.1
R163F	86.2
N165P	421
F47P	472
N165L	2.44
R49P	110
F47E	1.7
I33W	0.311
A158P	1620
H110K	0.393
T101R	1780
R74S	8.53
G71I	44.7
T135W	1.84
D153L	897
K54E	165

Sample 4
Target: RNA binding protein fox-1 homolog 2, RRM domain, GST-SBP tag (RBFOX2, Homo sapiens, UniProt O43251-10, residues 100-194)
Technique: RNA Bind-n-Seq
Molecule type: RNA
Sample: in vitro
Concentration: 365 nM
Notes: natural RNA segment, single round, ends assumed
Baseline: no-protein control
Direction: higher = stronger binding
Shared flanks, not repeated: GGGAGUUCUACAGUCCGACGAUC … UGGAAUUCUCGGGUGCCAA
Target sequence (chain): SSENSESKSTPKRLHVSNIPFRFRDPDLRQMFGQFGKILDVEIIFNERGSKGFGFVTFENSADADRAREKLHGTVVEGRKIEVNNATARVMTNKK
Strand	RBNS enrichment (R)
AAAAUUUCUUAAAGAUUUUGGUAAGAAAUAGAAGUCCACAUACAAGCAUUGAGGAAACUGAAAAAUCUUUGUAAGACCCUUAAUGGCUAAAGCCAUUGGCUGUAAUGAGU	0.553
CGAAAGUAAUACUCUGCACCCCUUCCUACAAAGAUGAUAAAGCAGUCACUUCUGGCGCAUUUUAAUAAUUUAAAGAUUUUUAGUGCAAUGGCACGGUAACCUCCAAACCU	0.216
UGAAGGAUUUAGACAAGGUUUUGAAAAGGAUAAUCAUGGGUUAGAAGGAAGUGUUUGAAAGUCACUUUGAAAGUUAGUUUUGGGCCAGCACGGUAGCUCACCCUUGUAAU	4.42
UUGUGUAUUUCUCUGUGAAUCCAUGGGUCUGGCUAGAGGGCCCAAAGCUUGUAAAUAUGGGGAUAGUCUGGGUCAGACCCAUCUCUCCCUUACCCAUCUUGCUUCCAAGA	1.06
AUAUUAAGCAGGUAUUAGAUUUAGGAAAACCUUUCCAUUUCUUAAAGUAUUAUCAAGUGUCAAGAUCAGCAAGUGUCCUUAAGUCAAACAGGUUUUUUUUGUUGUUGUUU	1.51
UUACAUUUGCACCAGCAAUGUAGGAGGGUUCUGAUAUCUCCACGUCCUCACCAACACUUGUGAUUAUGUGUCUUUUAAAAUUAUAGCCAUCCUUGUGGAUGUGAAGUGGU	0.3
UCCUCAUUGCUGGGACUGGGGACGGGGUGGAUUAGAAACAAAAAUUCUGUUUCUGAGGACUUUUAGCAAGAGACAGAAAAUCCUGCCAUUCUGGUUGGAAAUUAUAUAAA	0.898
UAUACUUACAUGUAUGUUCUUAAGAGAAAAACUAGGUACCCAUAGUGCACGUUUGAUUAGGAGUGUGAAUAGAGCUGCCGUGGCUCGAGUUCUUUUUAUCUUUUGCUUUU	1.7
CAGUCCAGAAGGGUUUCUGCAGACUGUGUUGGGUGAGACGCAGAAAGGAUGAAAUCUCAGAACACAUGUCAGCUGCUUCUCAGGAAAUCUUUUCUUUGGACAAUUCACUU	0.557
UUUCCACAGCAAAGAAUAUUUGAUAAUGGUUGCACUUAUCUUCAGUACAGGCUAGAAAAGAGUUCUCAACCAGGCUUAACUGGAGUGGUCUCAGAAAGCCAUCAACAGGC	0.431
AGCUUCUAAUGUUAUGAUCUAGCUAGAUUUUUAUUUAAAAUAUGAAAAACUGCUUUUCCCAAGACGUUUUUUAAAAGGAAAAAAAGCUACAAUUUUAAUAUUUGACAUAU	0.521
UUUCUCUAUGAAAGUAAAGCUGUUUGAAAAAUUAUUAUUUUUUUACAGAUCUUUCUAUAAAAAAUAAACAUCUUUUGAUUGCUUGGAUUUAGGAAUUCAAUUUUUGUUUC	0.976

Sample 5
Target: RING finger protein unkempt homolog, zinc fingers 1-6, GST-SBP tag (UNK, Homo sapiens, UniProt Q9C0B0, residues 30-357)
Chain of UniProt Q9C0B0 (30-357, looked up): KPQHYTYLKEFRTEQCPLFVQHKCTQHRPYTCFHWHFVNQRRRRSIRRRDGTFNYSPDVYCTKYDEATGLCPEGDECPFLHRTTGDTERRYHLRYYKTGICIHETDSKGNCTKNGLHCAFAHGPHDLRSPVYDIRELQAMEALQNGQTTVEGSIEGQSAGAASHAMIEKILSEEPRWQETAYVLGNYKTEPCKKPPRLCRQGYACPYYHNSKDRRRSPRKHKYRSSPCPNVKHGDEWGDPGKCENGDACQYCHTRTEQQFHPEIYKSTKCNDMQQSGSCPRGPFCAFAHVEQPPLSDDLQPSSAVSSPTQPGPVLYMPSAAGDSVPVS
Technique: RNA Bind-n-Seq
Molecule type: RNA
Sample: in vitro
Concentration: not given
Notes: RNA with constant flanks, human and mouse sites, ends assumed
Baseline: input RNA pool
Direction: higher = stronger binding
Shared flanks, not repeated: GGGAGUUCUACAGUCCGACGAUC … CAACAGAGGAUUGAGCAUCA
Strand	bound/input enrichment [ratio]
UUAAUGUUCUUAAUAAAGUGUUCUUGGAGUUUAACCUAGCAGCGGAUGGCUUUCUUUAGCUUAGCCCAGUUUCCAGGGAAGCAUUGUUUUUUCCAGGCUGUAAAAUGGCAGAAUCUCCUG	0.439
GUUGCAUUUACAACAAGAAUUUAUCAUCCAAAUAUUAACAGUAAUGGCAGCAUUUGUCUUGAUAUUCUACGAUCACAGUGGUCUCCAGCACUAACUAUUUCAAAAGUACUCUUGUCCAUC	0.178
GUUGGAGAUACUCAGGUGGUGGUUUUUAAGCAUGAAAAGGAAGAUGGCGCCAUUUCUACCAUAGUACUUCGAGGCUCUACAGACAAUCUGAUGGAUGACAUAGAAAGGGCAGUAGACGAU	0.857
UUUCACAUGAAUUGCUGGAAGAAGUUAAAAACUACAACCUUUAAUGAUAAAAUUGACAAGGAUUUUCUACAAGGAAUAUGUCUUACCCCUGACUGUGAAGGUGUCAUUUCUAAGAUUAUC	0.142
AUAUACUAUUUAUUAUAGCAUUUUGAUACCUCAUUCCGUUUACACAUCUCAAAAGCCGCUUAGUAAUUCUCUUAUUAUUUAAAGAACCACUACACUAGAGAAUGGAAUCUACUGUGGCAA	0.795
GAUAUGCACGUGGCCGACAUGCUGGUUAAGGUGAACGCACUUAUCAAGGAUCGGGAAGGUUAUGCUCCUGGCACAGAAUUCCACCGGUGCAAGGAGAUGUCUGAAUACUGCAGCACUCUG	0.111
GGUGAGCUUCAUUUUCUCCAAAUUGGAGGAACCUGUGAUGAUAUUGAUGAAGCUGAUAUUCUGGUAGAUGGAUCCCUUUCUAAAGGAAUAGAACCAGCUCUAGAAGGUUCCAGACCUUUA	0.195

Sample 6
Target: CCNB2, cyclin fold, Cln2 fusion (human)
Technique: yeast growth competition, sequencing
Sample: yeast
Notes: weak parent motif
Baseline: not given
Direction: higher = stronger binding
Parent: WEE1 docking peptide (human); HKTFRKLRLFDTP
Substitution	normalised enrichment score
K6I	0.493
R5Y	0.404
F4W	1.22
L9K	0.874
F4N	0.261
F10G	0.205
T3C	0.258
K2F	-0.236
T3M	0.349
D11T	0.683
R5C	-0.11
F4G	0.266
F10M	0.614
F4R	0.913

Sample 7
Target: Histone acetyltransferase KAT6A, both winged helices, GST fusion (KAT6A, Homo sapiens, UniProt Q92794, residues 1-181)
Technique: protein binding microarray
Molecule type: double-stranded DNA, one strand shown
Sample: in vitro
Concentration: not given
Notes: 8-mer, flanks averaged, mean of 2 arrays, mostly near background
Baseline: not given
Direction: higher = stronger binding
Target sequence (chain): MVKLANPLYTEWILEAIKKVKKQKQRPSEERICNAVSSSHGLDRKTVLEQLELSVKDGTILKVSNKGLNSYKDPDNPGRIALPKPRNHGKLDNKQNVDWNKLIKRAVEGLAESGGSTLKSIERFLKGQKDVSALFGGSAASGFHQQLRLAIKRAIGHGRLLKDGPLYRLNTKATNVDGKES
Strand	E-score
GTAATAGA	-0.108
AATGCCGT	0.332
AGGTTTAG	-0.166
AGGTCGGC	0.0842
CGTTCAAC	0.0625
CCTTAGCC	0.05
CTCGGCAG	0.103
GTCCGAGA	0.128
CTCGGCTC	0.0585
AATCCCGC	0.274
TAGTGACA	-0.154
AGCAGTTG	-0.194
CAACTACG	0.00444
AAGTTAGG	-0.089
CCAGCCTC	-0.268

Repeated from above (sample 3):
Substitution	ABA EC50 [µM]
N165P	421
F47P	472
N165L	2.44
R49P	110
F47E	1.7
I33W	0.311
A158P	1620
H110K	0.393
T101R	1780
